Results from different studies.
Parts stem from different laboratories: compare values within a part only. Positions count from the first letter of the parent shown.

Set 1
Target: ABI1, truncated, D143A, DHFR fusion (Arabidopsis thaliana)
Technique: DHFR PCA, deep sequencing
Matrix: yeast
Setting: methotrexate growth selection, single substitutions
Added: (+)-ABA 0.11 µM
Baseline: wild-type fitted maximum
Direction: higher = stronger binding
Parent: PYL1, truncated, DHFR fusion (Arabidopsis thaliana); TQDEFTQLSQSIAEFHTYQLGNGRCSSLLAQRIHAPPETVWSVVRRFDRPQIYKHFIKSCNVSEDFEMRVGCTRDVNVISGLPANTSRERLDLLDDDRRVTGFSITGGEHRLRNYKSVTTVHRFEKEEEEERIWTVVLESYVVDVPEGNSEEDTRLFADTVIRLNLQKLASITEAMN
| Substitution | relative binding score [%] |
| --- | --- |
| R74S | 0.867 |
| R90W | -0.912 |
| E109L | 1.08 |
| G23F | -4.71 |
| L8I | 12.6 |
| L82W | 53.1 |
| V40Y | -6.98 |
| S80V | 3.96 |

Set 2
Target: Histone acetyltransferase KAT6A, winged helix 2, GST fusion (KAT6A, Homo sapiens, UniProt Q92794, residues 85-181)
Technique: protein binding microarray
Form: double-stranded DNA, one strand shown
Matrix: in vitro
Tested at: not given
Setting: 8-mer, flanks averaged, mean of 2 arrays, mostly near background
Baseline: not given
Direction: higher = stronger binding
Construct (chain): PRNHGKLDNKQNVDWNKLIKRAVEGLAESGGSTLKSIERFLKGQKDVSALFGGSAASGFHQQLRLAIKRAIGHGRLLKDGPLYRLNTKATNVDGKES
| Strand | E-score |
| --- | --- |
| GAGCTTAA | 0.0207 |
| CTGATGGA | -0.0156 |
| AATCCGAG | 0.0933 |
| GAAAGCTC | -0.101 |
| GGAACCCA | 0.0364 |
| CTTCGGGA | 0.118 |
| AGCTACCG | -0.00888 |
| TATGGTAA | -0.104 |
| CAATAGAA | -0.215 |
| CAGAGGGA | 0.0302 |
| AGTTGTAC | -0.086 |
| CCGTTGAA | -0.115 |

Set 3
Target: CCND3, cyclin fold, Cln2 fusion (human)
Technique: yeast growth competition, sequencing
Matrix: yeast
Setting: weak parent motif
Baseline: not given
Direction: higher = stronger binding
Parent: CDKN1B docking peptide (human); PSACRNLFGPVDH
| Substitution | normalised enrichment score |
| --- | --- |
| PSANRNLFGPVDH [C4N] | 0.0957 |
| PSACRNLFGPIDH [V11I] | 0.192 |
| PSACRNLFGPEDH [V11E] | 0.127 |
| PSRCRNLFGPVDH [A3R] | 0.13 |
| PSACRNLFGPGDH [V11G] | 0.132 |
| PSACRNLFCPVDH [G9C] | 0.106 |
| PSACRNLFGPWDH [V11W] | 0.147 |
| PFACRNLFGPVDH [S2F] | 0.0695 |
| ESACRNLFGPVDH [P1E] | 0.0744 |
| PSARRNLFGPVDH [C4R] | 0.123 |
| PSACRNCFGPVDH [L7C] | -0.00452 |
| PYACRNLFGPVDH [S2Y] | 0.0786 |
| PSGCRNLFGPVDH [A3G] | 0.0989 |

Mixed results
| Molecule | target | assay | test system | setting | scale | measurement | value |
| --- | --- | --- | --- | --- | --- | --- | --- |
| PhoQ, residues 284 288 289 292 302 303 SLKLQV | PhoP, residues 12 14 15 18 19 DLLYY (Escherichia coli, UniProt P23836) | Sort-seq, measured: YFP reporter | E. coli | PhoQ-PhoP variant library, added: 10 µM Mg2+ | baseline: high Mg2+ state, higher = stronger signaling | fold induction | 1.18 |
